Results pooled from the literature.
Parts stem from different laboratories: compare values within a part only.

Set 1
Target: Replicase polyprotein 1ab, polymerase (rep, Severe acute respiratory syndrome coronavirus 2, UniProt P0DTD1)
Read-out: enzyme activity
Mode: inhibitor
Tested at: 20 µM
With `CCOc1ccc(C[C@H]2NC(=O)CCSSC[C@@H](C(=O)N3CCC[C@H]3C(=O)N[C@@H](CCCN)C(=O)NCC(N)=O)NC(=O)[C@H](CC(N)=O)NC(=O)[C@H]([C@@H](C)O)NC(=O)[C@H]([C@@H](C)CC)NC2=O)cc1` the inhibition was 2.23%.
`O=c1cccc2n1C[C@@H]1CNC[C@H]2C1` has an inhibition of -0.44%.
`CCCc1nn(C)c2c(=O)[nH]c(-c3cc(S(=O)(=O)N4CCN(C)CC4)ccc3OCC)nc12` has an inhibition of -5.22%.
`NC(=O)c1nnn(Cc2cc(Cl)c(C(=O)c3ccc(Cl)cc3)c(Cl)c2)c1N` gave an inhibition of -2.17%.
`Cc1cc2ncc(C(=O)NCC(C)(C)NCC(=O)N3CCC[C@H]3C#N)cn2n1` gave an inhibition of 0.87%.
The inhibition of `CC(C)(C)C[C@@H]1N[C@@H](C(=O)N[C@H]2CC[C@H](O)CC2)[C@H](c2cccc(Cl)c2F)[C@]12C(=O)Nc1cc(Cl)ccc12` is reported as -2.19%.
The inhibition of `N=C(N)c1ccc(/C=C/c2ccc(C(=N)N)cc2O)cc1` is reported as 7.26%.
`COc1ccc(Cl)c(Nc2ncnc3cc(OCC4CCN(C)CC4)c(OC)cc23)c1` gave an inhibition of 1.25%.
The inhibition of `CCNC(=O)CC[C@H](N)C(=O)O` is reported as -0.45%.
For `CN(Cc1ccc(C(C)(C)C)cc1)Cc1cccc2ccccc12`, the inhibition was -2.08%.
`CN=c1nc(-c2ccccc2)n(-c2ccccc2)s1` has an inhibition of 0.48%.
`CCOC(=O)c1ccc(OC(=O)CCCCCNC(=N)N)cc1` has an inhibition of 4.82%.
`CCC(C)SSc1ncc[nH]1` (stereo not drawn) gave an inhibition of -1.01%.
The inhibition of `CNC(=O)[C@H](Cc1c[nH]c2ccccc12)NC(=O)[C@@H](CC(=O)NO)CC(C)C` is reported as -7.68%.
The inhibition of `CCC1(C2=NCCN2)Cc2ccccc2O1` (stereo not drawn) is reported as -0.53%.
The inhibition of `CN=C(NS(=O)(=O)c1ccc(Cl)cc1)N1C[C@H](c2ccccc2)C(c2ccc(Cl)cc2)=N1` (racemic) is reported as -2.23%.
With `COc1ccc(NC(=O)c2ccc(-c3ccc(-c4noc(C)n4)cc3C)cc2)cc1OCCN(C)C` the inhibition was 4.16%.
With `CC[C@H](CC#N)OC(=O)N[C@@H](C)c1cccc(NC(=O)Nc2ccc(-c3cnco3)c(OC)c2)c1` the inhibition was -2.78%.
For `Cc1sc2c(c1C)C(c1ccc(Cl)cc1)=N[C@@H](CC(=O)Nc1ccc(OCCOCCOCCOCCNc3cccc4c3C(=O)N(C3CCC(=O)NC3=O)C4=O)cc1)c1nnc(C)n1-2` (stereo partly drawn), the inhibition was -15.7%.
`COC1(C[S@@+]([O-])c2ccccc2)CCN(CCc2c[nH]c3ccc(F)cc23)CC1` gave an inhibition of -4.42%.
`CC[N+](C)(C)c1cccc(O)c1` gave an inhibition of -1.5%.
The inhibition of `COc1ccc(C2CNC(=O)NC2)cc1O[C@H]1C[C@@H]2CC[C@H]1C2` is reported as 2.85%.
With `CN(C)CCN(Cc1ccccc1)c1ccccn1` the inhibition was -3.7%.
`CC1(C)C(/C=C/C=C/C=C/C=C2\N(CCCCS(=O)(=O)O)c3ccc4ccccc4c3C2(C)C)=[N+](CCCCS(=O)(=O)[O-])c2ccc3ccccc3c21` has an inhibition of 4.44%.
`CCCCn1ccc(N2CCC(c3ccccc3)CC2)c(Cl)c1=O` gave an inhibition of -4.55%.

Set 2
Target: Interferon regulatory factor 5, full length, phosphomimetic (IRF5, Homo sapiens, UniProt Q13568-2, residues 1-514, K96S/S451D/S453D/S456D/S462D)
Method: protein-binding microarray
Molecule type: double-stranded DNA, one strand shown
Medium: in vitro
Tested at: 250 nM
Setting: 60-bp whole probe
With: salmon DNA 0.4 mg/ml
Reference: random background probes
Direction: higher = stronger binding
All sequences stand within: GCCTAGCAC … GTCTTGATTCGCTTGACGCTGCTG
For `AATTACATTTCATAGAGTGTGTGCTAG`, the log fluorescence was 1.02 z-score.
With `TGAGGACTGCTTATCCTTTAGTGCTAG` the log fluorescence was -0.294 z-score.
`GAAGAACTGAGTTTCGAGACGTGCTAG` has a log fluorescence of 5.02 z-score.
For `TCAAACCCCATTCTCAGACTGTGCTAG`, the log fluorescence was -0.183 z-score.
For `TTAGGTATCCTTTTCCTTTTGTGCTAG`, the log fluorescence was 0.792 z-score.
`GACGGTATCGAGTATCGGGACGTGCTA` gave a log fluorescence of 3.29 z-score.
For `GACGGTACCCTTCTCCTGACGTGCTAG`, the log fluorescence was -0.15 z-score.
`GACGAATTCGGGTTTCGAGACGTGCTA` has a log fluorescence of 2.14 z-score.

Set 3
Target: RNA binding protein fox-1 homolog 2, RRM domain, GST-SBP tag (RBFOX2, Homo sapiens, UniProt O43251-10, residues 100-194)
Method: RNA Bind-n-Seq
Molecule type: RNA
Medium: in vitro
Tested at: 365 nM
Setting: natural RNA segment, single round, ends assumed
Reference: no-protein control
Direction: higher = stronger binding
Construct (chain): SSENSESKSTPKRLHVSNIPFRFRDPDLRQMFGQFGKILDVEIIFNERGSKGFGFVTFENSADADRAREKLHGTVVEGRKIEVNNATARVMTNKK
For `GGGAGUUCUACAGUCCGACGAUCUUACCCAGACUCAAGGAGUUGGUAAAGGGUUAAUAGCCAGAUAGUAGAACCAGUGAGGAGAUGCGGCCAAAGAUUCUUUAUAUCUGAACCAAGAUGUAAAACAAGAAAUGUGGAAUUCUCGGGUGCCAA`, “RBNS enrichment (R)” read 0.685.
`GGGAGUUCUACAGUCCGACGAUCACAACUCUUCCACCCCAAACAAAAGGGCUCAGGCUACACACGACCAUGAUUUAUGUUUUCAGGGGAUGCCCAUUUGUCCCAAGCUUAUCCUGUAAUUCUAGAAUUACCUGUGGAAUUCUCGGGUGCCAA`: “RBNS enrichment (R)” 0.368.
`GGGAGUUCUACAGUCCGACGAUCCCAACCUCUGCCCCAGUAGUUGCCUCCAGGGCGGAAGCAGGGAUGCGAAAGAUGGCUACCUGGGGGGCUGCGGGGCUUGGGGGAGUUUACAAUCCCAUCCUAUGGCCUGCUGGAAUUCUCGGGUGCCAA` — result for “RBNS enrichment (R)”: 0.448.
Under “RBNS enrichment (R)”, `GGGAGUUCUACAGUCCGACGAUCCCACCUGCCUCUAAUCUGAGCUGCAGCCUGGCUGGUCCUCCCAUUUCUAAAGCUGAAUGUCAAACAGUGCCAAAUGCUGGGGCAGGGGGUGAAGAACCCUCUGUCCCACCUGGAAUUCUCGGGUGCCAA` is recorded as 0.691.
Under “RBNS enrichment (R)”, `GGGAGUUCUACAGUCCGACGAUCUCAUACCUGGGUGGAGAGAGGGAGACAAAUAGCCAUAAACUUCAUCCUGGAGAACAAGUUACCAUGCAAGGAGUUGACAUCAGUUGUUAAGUGAGGCCCAUUCUUGUUUUUGGAAUUCUCGGGUGCCAA` is recorded as 0.251.
`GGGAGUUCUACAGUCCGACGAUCUGGCACAGUGCUCACGCCGCCUUUAUUUAUUGGACCAGAAACACUCACAUGUCACUUCCAGAGGAACGGGGGACAGCCAGGCUCGCCCAUGGGCCUUCAGGAAUAUUUAUUGGAAUUCUCGGGUGCCAA` — result for “RBNS enrichment (R)”: 0.399.
`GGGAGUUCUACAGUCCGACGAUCCAUGAGAGUUUUUCUAAAUCUACAUGAAAAACAAAUUUUCCUGGGUUUCAGUACAUUGGCUUUUACAUCAAAAACUAACAGGGCACAGUUUGACCUGUUUAGUGUAUUCUUGGAAUUCUCGGGUGCCAA`: “RBNS enrichment (R)” 0.286.
Under “RBNS enrichment (R)”, `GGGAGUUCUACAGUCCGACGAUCCAGUGUUUGUGGGAUAUCCCCAAAGGAAAGCUGUGUUCUAAUUUUAUCAUUUCCAUCUGUCUGGUUAUGUCAAGUUAACUCAGAAAAAGAAGAGACACUGACCAACCCUGUGGAAUUCUCGGGUGCCAA` is recorded as 0.372.

Set 4
Target: Sal-like protein 4, full length isoform A (SALL4, Homo sapiens, UniProt Q9UJQ4, residues 1-1053)
Chain of UniProt Q9UJQ4 (whole entry, looked up): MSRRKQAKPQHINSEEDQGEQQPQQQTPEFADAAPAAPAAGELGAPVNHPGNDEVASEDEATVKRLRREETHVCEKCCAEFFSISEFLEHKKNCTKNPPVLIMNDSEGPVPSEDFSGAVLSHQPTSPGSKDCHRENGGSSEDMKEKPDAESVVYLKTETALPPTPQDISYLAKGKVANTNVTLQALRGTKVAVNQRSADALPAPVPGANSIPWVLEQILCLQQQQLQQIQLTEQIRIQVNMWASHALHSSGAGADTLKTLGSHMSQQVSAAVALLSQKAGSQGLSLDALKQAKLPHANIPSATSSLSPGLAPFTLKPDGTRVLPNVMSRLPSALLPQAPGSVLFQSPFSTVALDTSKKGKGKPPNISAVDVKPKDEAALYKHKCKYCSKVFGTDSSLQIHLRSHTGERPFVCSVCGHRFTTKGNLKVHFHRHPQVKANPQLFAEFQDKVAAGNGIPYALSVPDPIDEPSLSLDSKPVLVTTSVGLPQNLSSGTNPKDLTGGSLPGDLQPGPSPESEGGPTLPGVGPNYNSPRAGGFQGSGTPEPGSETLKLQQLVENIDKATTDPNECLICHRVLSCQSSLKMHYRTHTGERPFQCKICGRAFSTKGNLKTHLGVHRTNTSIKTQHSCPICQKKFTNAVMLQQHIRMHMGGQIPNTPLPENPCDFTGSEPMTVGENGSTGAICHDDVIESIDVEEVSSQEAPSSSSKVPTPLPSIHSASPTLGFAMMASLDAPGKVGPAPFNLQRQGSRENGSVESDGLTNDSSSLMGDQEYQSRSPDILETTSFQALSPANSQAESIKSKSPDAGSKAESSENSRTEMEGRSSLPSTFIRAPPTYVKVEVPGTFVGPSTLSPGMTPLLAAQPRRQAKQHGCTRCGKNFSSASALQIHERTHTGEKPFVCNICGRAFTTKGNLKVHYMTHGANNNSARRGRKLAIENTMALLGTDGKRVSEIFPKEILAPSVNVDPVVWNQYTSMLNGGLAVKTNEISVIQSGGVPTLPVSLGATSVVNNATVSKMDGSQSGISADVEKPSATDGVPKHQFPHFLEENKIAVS
Method: universal PBM
Molecule type: double-stranded DNA, one strand shown
Medium: in vitro
Tested at: 600 nM
Setting: 8-mer, flanks averaged, mean of replicates
Direction: higher = stronger binding
`AAGGGTTA` has an E-score of 0.0707.
With `ACATATTG` the E-score was 0.277.
`GGTACTGA` gave an E-score of -0.14.
`AAACTGCG` has an E-score of -0.109.
`AGTACTGC` gave an E-score of -0.129.
The E-score of `TAGGTGGA` is reported as 0.152.
The E-score of `CGTGTACC` is reported as -0.221.
For `ACATGTGC`, the E-score was -0.00908.

Other studies, line by line
The inhibition of `O=[N+]([O-])c1ccc(Sc2cccc[n+]2[O-])c2nonc12` is reported as 100% (Replicase polyprotein 1ab, main protease (rep, Severe acute respiratory syndrome coronavirus 2, UniProt P0DTD1); enzyme activity; 20 µM, with DTT).
The GFP-positive cells of `COc1cc2nc(N(C)CCCNC(=O)C3CCCO3)nc(N)c2cc1OC` (stereo not drawn) is reported as 103% (HEK-293T; pseudovirus infection, FDA-approved drug library screen; VSV pseudotyped with SARS-CoV-2 spike; 10 µM, 16 h; reference: vehicle-treated).
`CCC[C@H](NC(=O)[C@@H]1[C@H]2CCC[C@H]2CN1C(=O)[C@@H](NC(=O)[C@@H](NC(=O)c1cnccn1)C1CCCCC1)C(C)(C)C)C(=O)C(=O)NC1CC1` has an inhibition of -0.44% (SARS-CoV-2; cytopathic effect; Vero E6; 10 µM, 96 h).
`CNC(=O)c1cnn(-c2nc(N)c3ncn([C@@H]4O[C@H](CO)[C@@H](O)[C@H]4O)c3n2)c1` gave a cell number of 102% (HEK-293T-ACE2; concentration not given; reference: vehicle).
`Thimerosal` has an inhibition of 46% (Replicase polyprotein 1ab, 3C-like proteinase (rep, Middle East respiratory syndrome-related coronavirus, UniProt K9N7C7); enzyme activity, inhibitor; 10 µM).

Some of these lines once more (set 1):
The inhibition of `N=C(N)c1ccc(/C=C/c2ccc(C(=N)N)cc2O)cc1` is reported as 7.26%.
For `CN(Cc1ccc(C(C)(C)C)cc1)Cc1cccc2ccccc12`, the inhibition was -2.08%.
The inhibition of `CN=C(NS(=O)(=O)c1ccc(Cl)cc1)N1C[C@H](c2ccccc2)C(c2ccc(Cl)cc2)=N1` (racemic) is reported as -2.23%.
The inhibition of `CCNC(=O)CC[C@H](N)C(=O)O` is reported as -0.45%.
With `CCOc1ccc(C[C@H]2NC(=O)CCSSC[C@@H](C(=O)N3CCC[C@H]3C(=O)N[C@@H](CCCN)C(=O)NCC(N)=O)NC(=O)[C@H](CC(N)=O)NC(=O)[C@H]([C@@H](C)O)NC(=O)[C@H]([C@@H](C)CC)NC2=O)cc1` the inhibition was 2.23%.
With `CC[C@H](CC#N)OC(=O)N[C@@H](C)c1cccc(NC(=O)Nc2ccc(-c3cnco3)c(OC)c2)c1` the inhibition was -2.78%.
